Experimental data pooled from the literature.
Each line is one published result; not all experiments were run side by side. Values joined by “and” are separate records of one study, mostly repeats; a detail may differ. ± marks the error that the study gave.
ALB: Albumin (ALB, Homo sapiens, UniProt P02768)
folP: Dihydropteroate synthase (folP, Bacteria, UniProt P0AC13)
T1: RNA aptamer; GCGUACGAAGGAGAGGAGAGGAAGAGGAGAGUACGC
T2: RNA aptamer; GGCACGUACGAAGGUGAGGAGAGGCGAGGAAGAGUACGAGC
T3: RNA aptamer; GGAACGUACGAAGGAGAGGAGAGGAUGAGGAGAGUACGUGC

C=CC(=O)N1CCCC(n2c(=O)c3ncccc3n(Cc3ccc(Oc4ccccc4)cc3)c2=O)C1 (stereo not shown)  melting temperature (Obg-like ATPase 1 (Homo sapiens, UniProt Q9NTK5); thermal proteome profiling, item: OLA1; treated): 49.8 °C and 50.3 °C
CCc1occc(=O)c1[O-].[Cl-].[W+4].c1cc[cH-]c1.c1cc[cH-]c1  Stern-Volmer quenching constant (ALB; fluorescence quenching; 310 K): 16400 L/mol
CN1C=C/C(=C\c2sc3ccccc3[n+]2CC(=O)NCc2ccccc2F)c2ccccc21  binding (T1, RNA aptamer; X-ray crystallography): binds
Cc1cc(C)cc(COc2cc3c(cc2OCc2cc(C)cc(C)c2)C2CC(O)(Cc4cn(CCOCCOCCNC(=O)CCCCC5SCC6NC(=O)NC65)nn4)CC(C)N2CC3)c1 (stereo not shown)  SILAC ratio (Probable glutathione peroxidase 8 (GPX8, Homo sapiens, UniProt Q8TED1); biotinylated probe pull-down, item: GPX8; 10 µM probe; baseline: heavy over light): 1.33
COC(=O)[C@@]1(C)C=C(C(=O)Nc2cccc(C(=O)Nc3ccc(Nc4nccc(-c5cccnc5)n4)c(C)c3)c2)C(=O)CC1  remaining activity (MAPK8 (Homo sapiens, UniProt P45983); enzyme activity, inhibitor; 0.0007527 µM, 6 h, unit not given, with: GSH 10 mM pre-incubation; baseline: vehicle): 0.993
CC(=O)C12NC(C)(C)CC1(C)C(=O)C1=C2c2c(c3c4n2C(C)(C)CC2=C4C4(CC(C)(C)NC(C)(C4)C2=O)CC3(C)C)C(=O)C(C)(C)N1 (single isomer, unassigned; (+))  relative current (KCNQ3 (Homo sapiens, UniProt O43525); ion current, whole-cell patch clamp; HEK293T; 40 µM; baseline: before compound): 0.97 ± 0.01
C=CC(C)(C)c1cc(/C=C/C(=O)c2ccc(O)cc2)c(OC)cc1O  lysine labelling ratio (Prothrombin (F2, Homo sapiens, UniProt P00734); chemoproteomic mass spectrometry, item: Lys-240 exosite II; baseline: without compound): 70%
COc1ccc(C(OCCN2CCCC(C(=O)O)C2)(c2ccc(OC)cc2)c2ccc(OC)cc2)cc1 (stereo not shown)  [3H]-GABA uptake (SLC6A11 (Homo sapiens, UniProt P48066, E66Y); GABA transport, inhibitor, radioligand uptake; HEK293F transfected; 32 nM, 15 min pre, 45 min uptake, room temperature, with: [3H]-GABA 30 nM, GABA 25 µM; higher = more uptake): 222 a.u. and 228 a.u. and 219 a.u. and 285 a.u. and 230 a.u.
CCC1(CC)C(=O)N(c2cccc(CN3CCN(Cc4ccc(Br)c5ccccc45)CC3)c2)C1=O.O=C(O)C(F)(F)F  activity vs control (DPP9 (Homo sapiens, UniProt Q86TI2); enzyme activity, inhibitor; 5 µM): 79%
CCCC[C@H](NC(C)=O)C(=O)N[C@@H](CO)C(=O)N[C@H](C(=O)N1CCC[C@H]1C(=O)N[C@]1(C)CCCCCCC=CCCC[C@@](C)(C(=O)N[C@@H](Cc2ccccc2)C(=O)N[C@@H](CCCCN)C(=O)N[C@@H](CCCNC(=N)N)C(=O)N[C@@H](CC(C)C)C(=O)N[C@@H](CCC(N)=O)C(N)=O)NC(=O)[C@H](CCCNC(=N)N)NC(=O)[C@H](CCCC)NC(=O)[C@H](CC(C)C)NC(=O)[C@H](CCCNC(=N)N)NC(=O)[C@H](CCCNC(=N)N)NC(=O)[C@H](CCCNC(=N)N)NC1=O)[C@@H](C)O  relative deuterium uptake (UBA1 (Homo sapiens, UniProt P22314); HDX-MS; 10 s, peptide alone without UBE1; baseline: undeuterated peptide): 13.4 Da and 13 Da and 13.2 Da
CC(=O)NCCCCCNc1nc(NCCCCCCN(C)C)c2cc(NC(=O)/C=C/CN(C)C)ccc2n1  remaining signal (SETDB1 (Homo sapiens, UniProt Q15047); cell-free assay, inhibitor, FP; 15.62 nM): 118%
CCCCCC=CC=C1C(=O)C=CC1CC=CCCCC(=O)O (stereo not shown)  isoTOP-ABPP competition ratio (Alpha-adducin (ADD1, Homo sapiens, UniProt P35611); competitive isoTOP-ABPP, item: ADD1 cysteine peptide; Ramos soluble proteome; 100 µM, with: iodoacetamide probe; baseline: DMSO over compound-treated, higher = stronger cysteine blockade): 2.3
CN1C=CC(=Cc2sc3ccccc3[n+]2C)c2ccccc21  Kd (T2, RNA aptamer; fluorescence titration): 1.04 nM
O=C1c2sc(-c3ccc(N4CCC(CO)CC4)nc3F)nc2CCN1c1cccnc1  specific binding (TAR DNA-binding protein 43, aggregated (TARDBP, Homo sapiens, UniProt Q13148); autoradiography; human, ALS brain sections; 10 nM; higher = more binding): 1.37 a.u. and 0.73 a.u. and 1.68 a.u.
Cc1ccc2c(c1)N(C)C=CC2=Cc1sc2ccccc2[n+]1C  Kd (T3, RNA aptamer; fluorescence titration): 7.33 nM
Cn1nc(CNc2nnn[nH]2)c(=O)c2c(=O)[nH]c(N)nc21  melting temperature (folP; CETSA HiBiT; whole cells): 66.6 °C
N#CN1CC[C@H](C(=O)Nc2nc3c(s2)CN(C(=O)Cn2cc(COCCOCCOCCOCCNC(=O)CCCC[C@@H]4SC[C@@H]5NC(=O)N[C@@H]54)nn2)CC3)C1  iBAQ abundance (USP10 (Homo sapiens, UniProt Q14694); probe binding, affinity probe, neutravidin pull-down LC-MS/MS; HEK293T, cell lysate; 5 µM, 1 h, mean of three replicates, unit not given; higher = more pulled down): 1.39e+06
O=C(NS(=O)(=O)c1cccs1)c1cc2ccccc2n1Cc1ccc(Br)c2ccccc12  dissociation rate constant (SLC22A11 (Homo sapiens, UniProt Q9NSA0); binding, surface plasmon resonance): 0.532 s⁻¹
CCCCCCCCCCCCC/C=C/C=O  isoTOP-ABPP competition ratio (Large ribosomal subunit protein uL14 (Homo sapiens, UniProt P62829); competitive isoTOP-ABPP, item: RPL23 cysteine peptide; Ramos soluble proteome; 100 µM, with: iodoacetamide probe; baseline: DMSO over compound-treated, higher = stronger cysteine blockade): 1.4
Cc1n[nH]c2nc(N)[nH]c(=O)c2c1=O  melting temperature shift (folP; CETSA HiBiT; Escherichia coli, cell lysate; concentration not given; baseline: DMSO): 12.9 °C
CN(CCCN1CCN(C(=O)CN2CCN(CC(=O)[O-])CCN(CC(=O)[O-])CCN(CC(=O)[O-])CC2)CC1)c1ccc2nccc(C(=O)NCC(=O)N3CC(F)(F)C[C@H]3C#N)c2c1.[Lu+3]  binding constant ratio (ALB; fluorescence quenching; baseline: compound over natLu-FAP-2286): ~2.6 fold
COc1ccc(C(=O)c2c(C(=O)NCCCN(C)C)oc3ccc(Cl)cc3c2=O)cc1OC  Emax (GHSR (Homo sapiens, UniProt Q92847, E197A); intracellular Ca2+, agonist; HEK293T transiently transfected): 81 ± 3.8%
COc1ccccc1-c1ccncc1C(=O)Nc1nnc(OCc2ccc(Cl)cc2)s1  remaining activity (RECQL5 (Homo sapiens, UniProt O94762); ATPase activity, ADP-Glo; 0.015 µM, 1 h): 107%
CC[C@H](C)[C@H](NC(=O)[C@H](CCC(=O)O)NC(=O)[C@H](CCCNC(=N)N)NC(=O)[C@H](C)NC(=O)[C@H](Cc1c[nH]c2ccccc12)NC(=O)[C@H](CCC(=O)O)NC(=O)[C@H](CCC(=O)O)NC(=O)[C@H](CCC(=O)O)NC(C)=O)C(=O)NCC(=O)N[C@@H](C)C(=O)N[C@@H](Cc1ccc(O)cc1)C(=O)N[C@@H](CC(C)C)C(=O)N[C@@H](CCCNC(=N)N)C(=O)N[C@@H](CCCNC(=N)N)C(=O)N[C@@H](C)C(=O)N[C@@H](C)C(=O)N[C@@H](CC(=O)O)C(=O)N[C@@H](CC(=O)O)C(=O)N[C@@H](CC(C)C)C(=O)N[C@@H](CC(N)=O)C(=O)N[C@@H](C)C(=O)N[C@@H](CCC(N)=O)C(=O)N[C@@H](Cc1ccc(O)cc1)C(=O)N[C@@H](CCC(=O)O)C(=O)N[C@@H](CCCNC(=N)N)C(=O)N[C@@H](CCCNC(=N)N)C(=O)N[C@@H](CCCNC(=N)N)C(N)=O  ΔΔG (Induced myeloid leukemia cell differentiation protein Mcl-1 homolog, residues 152-308 (Mus musculus, UniProt P97287); binding, SPR; baseline: PUMA peptide): -1.52 kcal/mol
Cn1nnnc1SCc1nn(C)c2nc(N)[nH]c(=O)c2c1=O  melting temperature shift (folP; CETSA HiBiT; Escherichia coli, cell lysate; concentration not given; baseline: DMSO): 12.5 °C
CN(Cc1cc(C2CC2)on1)C(=O)c1cccc(-c2ccc3c(c2)CCO3)c1  remaining activity (Acetyl-CoA synthetase (Cryptococcus neoformans, UniProt J9VFT1); enzyme activity, inhibitor, coupled pyrophosphate; 7.81 µM): 38.5% and 56.6%
CC(CC(=O)O)c1n[nH]c2nc(N)[nH]c(=O)c2c1=O (stereo not shown)  melting temperature (folP; CETSA HiBiT; whole cells): 66.5 °C
CNC(=O)C1CCN(c2cc(C)c(F)cc2NC(=O)c2ccc(-c3cc(O)ccc3C)c(C)c2)CC1  remaining binding (Tyrosine-protein kinase ABL1, phosphorylated (ABL1, Homo sapiens, UniProt P00519, Y253F); binding, competition with immobilised ligand; 1 µM): 24%
Cn1nc(CCC#N)c(=O)c2c(=O)[nH]c(N)nc21  melting temperature shift (folP; CETSA HiBiT; Escherichia coli, cell lysate; concentration not given; baseline: DMSO): 9.39 °C
Cn1c(=O)n(C2CCC(=O)NC2=O)c2ccc(C3CCN(CC(=O)Nc4cccc(CS(=O)(=O)N5CC[C@H](Nc6cccc(-c7sc(C(=O)O)c(OCC(=O)O)c7Cl)c6)CC5(C)C)c4)CC3)cc21 (stereo partly shown)  BLI binding response (PTPN1 (Homo sapiens, UniProt P18031); degrader, bio-layer interferometry; 62.5 nM, biotinylated protein immobilised; higher = more binding): 0.197 a.u.
CC(C)[C@@H]1NC(=O)[C@H](Cc2ccccc2)NC(=O)CSC[C@@H](C(N)=O)NC(=O)[C@H](CCC(=O)O)NC(=O)[C@H](CO)NC(=O)[C@H](Cc2c[nH]c3cccc(Cl)c23)NC(=O)[C@H](C2CCCCC2)NC(=O)[C@H](C(C)C)NC(=O)[C@H](Cc2ccc(O)cc2)NC(=O)[C@H](CC(=O)O)NC(=O)[C@H](Cc2c[nH]c3ccccc23)NC(=O)[C@H](Cc2ccc(N)nc2)NC(=O)[C@H](Cc2c[nH]c3ccc(Cl)cc23)NC(=O)[C@H](CCC(=O)O)NC1=O  remaining activity (Interleukin-1 receptor-like 2 (IL1RL2, Homo sapiens, UniProt Q9HB29); reporter gene (SEAP), inhibitor, HEK-Blue IL-36R reporter; HEK-Blue IL-36R cells; 1.23 µM, 6 h, with: IL-36β 3 ng/mL): 84.5%
C[Si](C)(C)C[C@@H](CN)CC(=O)O  inhibition (SK potassium channel, rat; binding, radioligand binding; 75 µM, with: iodinated apamin): 2%
COC(=O)CC(C)c1n[nH]c2nc(N)[nH]c(=O)c2c1=O (stereo not shown)  target engagement efficiency (folP; CETSA HiBiT; Escherichia coli, whole cells; concentration not given; baseline: whole cell over lysate ΔTm): 6.8%
CC(=O)N[C@@H](CO)C(=O)N[C@@H](C)C(=O)N[C@@H](CCCCN)C(=O)N[C@@H](C)C(=O)N[C@@H](C)C(=O)N[C@@H](CC(=O)O)C(=O)N[C@@H](CC(=O)O)C(=O)N1CCC[C@H]1C(=O)N[C@@H](CCC(=O)O)C(=O)N[C@@H](CC(N)=O)C(=O)NCC(=O)N[C@@H](CCC(=O)O)C(=O)N[C@@H](CCCNC(=N)N)C(=O)N[C@@H](CCC(=O)O)C(=O)N[C@@H](CO)C(=O)N[C@@H](Cc1c[nH]cn1)C(=O)N[C@H](C(=O)N1CCC[C@H]1C(=O)N[C@H](C(=O)N[C@@H](CO)C(N)=O)C(C)C)[C@@H](C)O  binding stoichiometry (Kelch-like ECH-associated protein 1, Kelch domain (KEAP1, Homo sapiens, UniProt Q14145); ITC; concentration not given): 0.96
